Measurements gathered from unrelated publications.
A part holds a random share of what one study measured. Several values in a cell are separate wells, animals, samples, runs or records.
UniProt P06213, sequence (whole entry, looked up): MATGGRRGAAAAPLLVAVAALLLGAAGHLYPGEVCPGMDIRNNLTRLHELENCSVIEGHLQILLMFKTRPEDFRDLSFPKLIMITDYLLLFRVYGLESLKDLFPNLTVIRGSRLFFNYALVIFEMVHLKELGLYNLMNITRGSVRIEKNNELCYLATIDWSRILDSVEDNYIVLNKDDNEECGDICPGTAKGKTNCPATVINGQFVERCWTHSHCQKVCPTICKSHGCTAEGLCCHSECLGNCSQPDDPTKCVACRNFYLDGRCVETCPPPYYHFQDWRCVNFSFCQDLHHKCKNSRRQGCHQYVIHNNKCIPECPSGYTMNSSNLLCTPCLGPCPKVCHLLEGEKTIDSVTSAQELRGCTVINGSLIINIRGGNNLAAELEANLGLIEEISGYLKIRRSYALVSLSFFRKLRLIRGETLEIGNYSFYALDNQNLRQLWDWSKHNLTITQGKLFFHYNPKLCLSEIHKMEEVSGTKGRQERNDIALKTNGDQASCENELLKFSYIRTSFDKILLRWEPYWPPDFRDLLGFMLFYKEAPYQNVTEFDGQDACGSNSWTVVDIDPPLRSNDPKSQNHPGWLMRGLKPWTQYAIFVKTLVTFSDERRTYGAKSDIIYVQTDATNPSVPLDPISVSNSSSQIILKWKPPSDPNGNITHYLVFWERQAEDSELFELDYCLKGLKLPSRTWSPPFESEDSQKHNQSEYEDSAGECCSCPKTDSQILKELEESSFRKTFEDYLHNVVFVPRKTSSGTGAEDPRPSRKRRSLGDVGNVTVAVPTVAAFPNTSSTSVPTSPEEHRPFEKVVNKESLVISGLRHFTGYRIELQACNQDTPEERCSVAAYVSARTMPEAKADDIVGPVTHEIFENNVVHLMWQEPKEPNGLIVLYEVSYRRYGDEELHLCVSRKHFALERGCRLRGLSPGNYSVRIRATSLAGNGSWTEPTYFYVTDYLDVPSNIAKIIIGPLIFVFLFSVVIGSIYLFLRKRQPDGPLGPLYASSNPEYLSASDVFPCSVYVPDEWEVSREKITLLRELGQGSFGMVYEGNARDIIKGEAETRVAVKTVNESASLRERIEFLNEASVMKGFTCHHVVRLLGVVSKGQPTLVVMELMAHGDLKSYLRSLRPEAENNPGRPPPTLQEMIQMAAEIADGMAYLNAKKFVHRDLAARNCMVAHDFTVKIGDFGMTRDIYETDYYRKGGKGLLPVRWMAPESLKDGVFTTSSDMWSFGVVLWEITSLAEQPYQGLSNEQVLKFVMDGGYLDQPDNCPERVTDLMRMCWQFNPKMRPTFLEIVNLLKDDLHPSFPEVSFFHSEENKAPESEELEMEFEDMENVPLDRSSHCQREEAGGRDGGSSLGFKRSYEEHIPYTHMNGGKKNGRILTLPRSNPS
UniProt Q16288, sequence (whole entry, looked up): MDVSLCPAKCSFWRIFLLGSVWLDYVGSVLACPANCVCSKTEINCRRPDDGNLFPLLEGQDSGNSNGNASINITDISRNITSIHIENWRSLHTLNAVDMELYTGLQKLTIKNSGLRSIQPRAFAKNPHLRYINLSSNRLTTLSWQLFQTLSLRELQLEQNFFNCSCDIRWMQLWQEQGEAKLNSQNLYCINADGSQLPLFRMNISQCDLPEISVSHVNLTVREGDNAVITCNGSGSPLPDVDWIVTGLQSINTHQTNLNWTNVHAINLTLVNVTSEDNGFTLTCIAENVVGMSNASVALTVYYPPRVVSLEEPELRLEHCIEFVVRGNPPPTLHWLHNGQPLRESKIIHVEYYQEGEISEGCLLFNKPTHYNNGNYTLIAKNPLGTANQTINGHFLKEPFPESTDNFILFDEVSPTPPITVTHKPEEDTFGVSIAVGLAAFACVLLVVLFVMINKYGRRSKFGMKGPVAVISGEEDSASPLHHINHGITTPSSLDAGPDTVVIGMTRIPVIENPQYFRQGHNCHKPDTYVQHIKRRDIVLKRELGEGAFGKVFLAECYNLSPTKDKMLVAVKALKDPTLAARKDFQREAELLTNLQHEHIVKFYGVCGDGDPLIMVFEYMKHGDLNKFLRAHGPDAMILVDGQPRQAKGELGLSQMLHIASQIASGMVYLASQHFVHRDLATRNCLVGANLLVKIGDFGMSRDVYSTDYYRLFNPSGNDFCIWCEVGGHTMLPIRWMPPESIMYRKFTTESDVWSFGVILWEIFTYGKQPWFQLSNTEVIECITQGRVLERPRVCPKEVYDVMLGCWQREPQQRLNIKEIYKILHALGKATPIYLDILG
UniProt O60331, sequence (whole entry, looked up): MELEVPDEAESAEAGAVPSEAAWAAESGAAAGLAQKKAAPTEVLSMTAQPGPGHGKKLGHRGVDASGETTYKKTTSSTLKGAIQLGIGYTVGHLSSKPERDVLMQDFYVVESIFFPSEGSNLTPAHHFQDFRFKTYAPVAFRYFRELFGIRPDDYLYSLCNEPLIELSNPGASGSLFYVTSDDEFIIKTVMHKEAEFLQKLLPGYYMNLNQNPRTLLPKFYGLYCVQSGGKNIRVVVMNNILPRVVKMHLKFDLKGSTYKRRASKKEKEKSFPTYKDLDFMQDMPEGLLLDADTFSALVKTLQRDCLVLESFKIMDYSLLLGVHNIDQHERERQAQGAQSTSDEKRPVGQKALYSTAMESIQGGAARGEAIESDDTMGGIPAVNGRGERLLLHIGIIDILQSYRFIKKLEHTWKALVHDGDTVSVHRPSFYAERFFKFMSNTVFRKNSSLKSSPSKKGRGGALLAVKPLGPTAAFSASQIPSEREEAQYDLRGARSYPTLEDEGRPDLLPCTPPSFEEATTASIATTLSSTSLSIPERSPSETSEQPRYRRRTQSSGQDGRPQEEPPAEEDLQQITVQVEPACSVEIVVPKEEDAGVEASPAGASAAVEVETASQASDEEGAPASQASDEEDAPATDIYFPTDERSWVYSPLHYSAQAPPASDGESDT
UniProt P37023, sequence (whole entry, looked up): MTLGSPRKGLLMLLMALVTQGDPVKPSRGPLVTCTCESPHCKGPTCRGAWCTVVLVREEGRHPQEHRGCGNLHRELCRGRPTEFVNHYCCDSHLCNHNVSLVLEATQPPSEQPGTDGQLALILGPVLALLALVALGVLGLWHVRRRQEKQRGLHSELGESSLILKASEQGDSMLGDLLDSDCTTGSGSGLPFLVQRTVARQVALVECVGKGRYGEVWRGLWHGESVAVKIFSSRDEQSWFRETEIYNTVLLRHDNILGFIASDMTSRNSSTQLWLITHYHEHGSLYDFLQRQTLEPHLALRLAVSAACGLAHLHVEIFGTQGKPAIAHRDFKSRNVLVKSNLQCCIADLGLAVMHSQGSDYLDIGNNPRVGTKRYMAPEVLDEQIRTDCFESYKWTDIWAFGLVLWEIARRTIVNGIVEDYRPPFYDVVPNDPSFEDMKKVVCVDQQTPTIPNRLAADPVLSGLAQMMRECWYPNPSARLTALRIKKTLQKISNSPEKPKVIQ
UniProt Q04759, sequence (whole entry, looked up): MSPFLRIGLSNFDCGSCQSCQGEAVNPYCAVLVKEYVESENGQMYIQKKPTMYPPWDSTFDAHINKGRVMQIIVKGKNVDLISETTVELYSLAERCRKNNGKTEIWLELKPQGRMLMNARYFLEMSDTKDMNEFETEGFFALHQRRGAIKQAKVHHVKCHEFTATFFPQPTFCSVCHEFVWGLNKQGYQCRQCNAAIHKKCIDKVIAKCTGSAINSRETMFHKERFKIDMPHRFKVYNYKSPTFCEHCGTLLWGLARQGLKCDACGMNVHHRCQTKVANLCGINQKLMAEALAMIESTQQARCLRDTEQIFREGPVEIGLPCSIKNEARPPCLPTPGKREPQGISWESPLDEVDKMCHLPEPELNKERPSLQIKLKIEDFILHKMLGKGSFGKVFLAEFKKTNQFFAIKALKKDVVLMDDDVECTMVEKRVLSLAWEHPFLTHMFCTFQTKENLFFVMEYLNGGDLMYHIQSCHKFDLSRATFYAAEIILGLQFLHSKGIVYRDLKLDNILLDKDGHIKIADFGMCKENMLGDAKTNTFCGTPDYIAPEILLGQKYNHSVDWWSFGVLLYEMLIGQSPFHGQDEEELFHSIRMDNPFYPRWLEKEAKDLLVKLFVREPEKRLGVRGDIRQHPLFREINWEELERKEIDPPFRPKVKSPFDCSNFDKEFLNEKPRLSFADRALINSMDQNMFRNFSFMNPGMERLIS
UniProt Q9BRS2, sequence (whole entry, looked up): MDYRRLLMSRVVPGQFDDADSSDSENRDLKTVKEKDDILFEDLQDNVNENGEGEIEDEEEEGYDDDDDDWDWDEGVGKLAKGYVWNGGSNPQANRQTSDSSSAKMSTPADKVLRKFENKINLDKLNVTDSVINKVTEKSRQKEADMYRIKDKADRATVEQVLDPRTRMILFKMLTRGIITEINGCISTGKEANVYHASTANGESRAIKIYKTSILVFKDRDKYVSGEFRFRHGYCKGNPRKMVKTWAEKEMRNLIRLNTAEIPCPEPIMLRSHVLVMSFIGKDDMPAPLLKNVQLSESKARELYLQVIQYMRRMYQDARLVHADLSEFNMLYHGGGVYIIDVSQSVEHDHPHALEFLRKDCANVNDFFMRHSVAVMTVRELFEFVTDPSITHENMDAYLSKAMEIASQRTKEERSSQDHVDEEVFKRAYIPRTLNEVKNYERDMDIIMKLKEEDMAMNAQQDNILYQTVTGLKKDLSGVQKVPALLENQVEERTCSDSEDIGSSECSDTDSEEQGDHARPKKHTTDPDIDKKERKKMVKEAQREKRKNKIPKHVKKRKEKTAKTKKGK
UniProt Q8IU85, sequence (whole entry, looked up): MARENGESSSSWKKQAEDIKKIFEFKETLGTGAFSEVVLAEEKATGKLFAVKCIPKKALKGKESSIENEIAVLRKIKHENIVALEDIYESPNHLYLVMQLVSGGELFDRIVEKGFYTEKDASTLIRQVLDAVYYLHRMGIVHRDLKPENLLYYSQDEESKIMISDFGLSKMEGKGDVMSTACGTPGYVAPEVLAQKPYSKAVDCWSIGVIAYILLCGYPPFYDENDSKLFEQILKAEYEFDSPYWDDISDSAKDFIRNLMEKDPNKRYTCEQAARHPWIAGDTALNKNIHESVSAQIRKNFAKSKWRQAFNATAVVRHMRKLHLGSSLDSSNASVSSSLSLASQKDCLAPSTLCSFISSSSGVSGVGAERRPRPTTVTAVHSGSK

Study 1
Cell line: HH
Concentration: 2 µM
Time: 48 h
Relative to: untreated
SMILES | viability
COc1ccc(COc2cc3oc(=O)c4cc(C(C)O)ccc4c3cc2OC)cc1 (stereo not shown) | 76.3%
Cc1cc(F)c(Nc2ncnc3cc(OCc4ccccc4)ccc23)cc1O | 78.6%
CCc1cncnc1N1CCN(Cc2nc3ccc(C(F)(F)F)cc3[nH]2)CC1 | 80.5%
Cc1ccc(NC(=O)c2ccc(CN3CCN(C)CC3)cc2)cc1Nc1nc(-c2cccnc2)cs1 | 107%
C=CC(=O)Nc1cccc(Oc2nc(Nc3ccc(N4CCN(C)CC4)cc3)nc3ccsc23)c1 | 64.2%
O=S(=O)(c1cccc2cnccc12)N1CCCNCC1 | 68.3%

Study 2
Target: Serine/threonine-protein kinase TAO2 (TAOK2, Homo sapiens, UniProt Q9UL54)
Effect on: enzyme activity
Mode: inhibitor
Concentration: 0.5 µM
Relative to: control
Residues (Q9UL54 1-1235): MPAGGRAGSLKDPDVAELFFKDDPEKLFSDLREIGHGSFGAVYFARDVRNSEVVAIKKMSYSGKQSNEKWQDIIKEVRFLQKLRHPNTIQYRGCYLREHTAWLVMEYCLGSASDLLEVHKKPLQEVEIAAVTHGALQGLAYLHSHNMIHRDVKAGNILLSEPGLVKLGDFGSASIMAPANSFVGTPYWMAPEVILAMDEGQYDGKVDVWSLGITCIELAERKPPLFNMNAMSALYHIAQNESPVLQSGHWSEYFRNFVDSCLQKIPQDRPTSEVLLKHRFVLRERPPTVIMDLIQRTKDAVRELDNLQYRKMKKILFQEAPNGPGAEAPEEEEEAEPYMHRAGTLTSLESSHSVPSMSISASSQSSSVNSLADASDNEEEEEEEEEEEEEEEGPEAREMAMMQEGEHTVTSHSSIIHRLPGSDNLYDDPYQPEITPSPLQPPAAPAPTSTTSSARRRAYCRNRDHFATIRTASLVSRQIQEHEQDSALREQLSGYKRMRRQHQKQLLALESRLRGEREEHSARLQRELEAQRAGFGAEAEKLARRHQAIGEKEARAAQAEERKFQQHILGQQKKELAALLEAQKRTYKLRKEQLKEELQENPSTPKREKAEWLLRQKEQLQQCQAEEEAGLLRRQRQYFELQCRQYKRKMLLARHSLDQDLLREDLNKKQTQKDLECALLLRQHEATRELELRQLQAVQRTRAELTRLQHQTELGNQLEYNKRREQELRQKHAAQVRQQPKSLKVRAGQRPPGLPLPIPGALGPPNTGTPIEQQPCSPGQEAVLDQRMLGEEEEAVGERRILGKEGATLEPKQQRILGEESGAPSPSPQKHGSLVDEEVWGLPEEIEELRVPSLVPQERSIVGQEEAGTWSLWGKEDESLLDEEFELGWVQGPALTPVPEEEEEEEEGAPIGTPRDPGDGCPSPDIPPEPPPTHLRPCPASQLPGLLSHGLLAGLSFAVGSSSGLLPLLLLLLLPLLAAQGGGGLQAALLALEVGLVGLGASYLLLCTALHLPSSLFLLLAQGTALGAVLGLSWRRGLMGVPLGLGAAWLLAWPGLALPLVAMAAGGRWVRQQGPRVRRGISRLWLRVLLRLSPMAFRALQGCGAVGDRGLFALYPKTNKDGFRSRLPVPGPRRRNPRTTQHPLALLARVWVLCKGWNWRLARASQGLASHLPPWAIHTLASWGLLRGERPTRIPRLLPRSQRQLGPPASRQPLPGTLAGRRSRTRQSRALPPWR
Compound | remaining activity
O=C1Nc2ccc(Cl)cc2C1=Cc1cc(Cl)c(O)c(Cl)c1 | 81.3%
CCN(CC)C(=O)c1ccc(Nc2nc(OCC3CCCCC3)c3[nH]cnc3n2)cc1 | 66%
Cc1nc2cc3nc(-c4cccs4)cnc3cc2n1C | 99.7%
CN([C@@H](Cc1ccc(OS(=O)(=O)c2cccc3cnccc23)cc1)C(=O)N1CCN(c2ccccc2)CC1)S(=O)(=O)c1cccc2cnccc12 | 98.3%
CN(C)C[C@H]1CCn2c(c(C3=C(c4cn(C)c5ccccc45)C(=O)NC3=O)c3ccccc32)C1 | 87.7%
CCN(CC)CCNC(=O)c1c(C)[nH]c(/C=C2\C(=O)Nc3ccc(Cl)cc32)c1C | 72.6%
N#C/C(=C\c1ccc(O)c(O)c1)C(=O)NCc1ccccc1 | 95.7%
N#Cc1c(NC(=O)c2cccc3ccccc23)sc2c1CCCC2 | 99.8%
O=C(Nc1cccc(Nc2nccc(Nc3cccc(C(F)(F)F)c3)n2)c1)C1CC1 | 92.4%
O=C1C(Cl)=C(N2C(=O)CCC2=O)C(=O)c2ccccc21 | 99.2%

Study 3
Structure (SMILES): C[C@H](c1ccc(F)cc1)N(Cc1cccc(C(=O)O)c1)C(=O)c1cnc2ccccc2c1
Concentration: 1 µM
target | effect on | method | remaining binding [%]
NTRK3 (Homo sapiens, UniProt Q16288) | cell-free assay | competition with immobilised ligand | 92
ULK2 (Homo sapiens, UniProt Q8IYT8) | cell-free assay | competition with immobilised ligand | 81
WNK1 (Homo sapiens, UniProt Q9H4A3) | cell-free assay | competition with immobilised ligand | 100
MARK1 (Homo sapiens, UniProt Q9P0L2) | cell-free assay | competition with immobilised ligand | 100
MAP3K20 (Homo sapiens, UniProt Q9NYL2) | cell-free assay | competition with immobilised ligand | 100
NUAK1 (Homo sapiens, UniProt O60285) | cell-free assay | competition with immobilised ligand | 100
PLK4 (Homo sapiens, UniProt O00444) | cell-free assay | competition with immobilised ligand | 100
Insulin receptor (INSR, Homo sapiens, UniProt P06213) | cell-free assay | competition with immobilised ligand | 100
Ribosomal protein S6 kinase alpha-6, N-terminal kinase domain (RPS6KA6, Homo sapiens, UniProt Q9UK32) | cell-free assay | competition with immobilised ligand | 100
CDK18 (Homo sapiens, UniProt Q07002) | cell-free assay | competition with immobilised ligand | 100
SLK (Homo sapiens, UniProt Q9H2G2) | cell-free assay | competition with immobilised ligand | 100
CAMK1D (Homo sapiens, UniProt Q8IU85) | cell-free assay | competition with immobilised ligand | 100
FGR (Homo sapiens, UniProt P09769) | cell-free assay | competition with immobilised ligand | 100
CDC42BPG (Homo sapiens, UniProt Q6DT37) | – | competition binding | 100
CSNK1G3 (Homo sapiens, UniProt Q9Y6M4) | cell-free assay | competition with immobilised ligand | 100
RIOK1 (Homo sapiens, UniProt Q9BRS2) | cell-free assay | competition with immobilised ligand | 100
DCLK1 (Homo sapiens, UniProt O15075) | cell-free assay | competition with immobilised ligand | 100
GRK3 (Homo sapiens, UniProt P35626) | binding | competition with immobilised ligand | 40
STK32B (Homo sapiens, UniProt Q9NY57) | cell-free assay | competition with immobilised ligand | 97
FLT3 (Homo sapiens, UniProt P36888, F691L/ITD) | cell-free assay | competition with immobilised ligand | 100
PRKCQ (Homo sapiens, UniProt Q04759) | cell-free assay | competition with immobilised ligand | 100
ACVRL1 (Homo sapiens, UniProt P37023) | binding | competition with immobilised ligand | 100
ULK1 (Homo sapiens, UniProt O75385) | cell-free assay | competition with immobilised ligand | 86
Mast/stem cell growth factor receptor Kit, autoinhibited (KIT, Homo sapiens, UniProt P10721) | cell-free assay | competition with immobilised ligand | 100
PIP5K1C (Homo sapiens, UniProt O60331) | cell-free assay | competition with immobilised ligand | 100

Study 4
Target: Histone acetyltransferase KAT6A, winged helix 2, GST fusion (KAT6A, Homo sapiens, UniProt Q92794, residues 85-181)
Method: protein binding microarray
Form: double-stranded DNA, one strand shown
Medium: in vitro
Concentration: not given
Notes: 8-mer, flanks averaged, mean of 2 arrays, mostly near background
Relative to: not given
Reading: higher = stronger binding
Construct (chain): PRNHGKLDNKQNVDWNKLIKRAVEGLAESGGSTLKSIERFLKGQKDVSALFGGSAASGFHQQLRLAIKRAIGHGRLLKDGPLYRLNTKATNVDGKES
Oligonucleotide | E-score
CCTAGAGC | 0.118
ACAAACGA | 0.0987
TGACAACA | -0.103
CTGCTCTC | 0.0609
GACTCCAA | -0.165
CGGCCGCC | 0.102
GGTCGTAA | 0.035
GGCACTCA | -0.196

Other studies, line by line
Compound | tested on | test | test system | setting | measurement | value
CC(C)S(=O)(=O)c1cc2c(Nc3ccc4sc(C5CCCC5)nc4c3)ccnc2cc1OCCO | L929 RIPK3 knockout | cell viability | – | without zVAD, 10% FBS, mean of 3 | CC50 | 45.7 µM
CC(C)C[C@@H]1NC(=O)[C@@H](N(C)C(=O)[C@H](CC2CCC2)NC(=O)[C@@H]2C[C@@H](F)CN2C(=O)C2(C(F)(F)F)CC(F)(F)C2)CCCCNC(=O)C2(CC2)NC(=O)[C@H](Cc2cc(Cl)ccc2Cl)N(C)C1=O | human CD34+ HSPC | EdU flow cytometry | – | 300 nM, 24 h | S-phase cells | 43.8% and 45.1%
CC(C)n1cnc(-c2ccc(F)cc2)c1-c1ncc(C(=O)Nc2ccc(N3CCN(C)CC3)cc2)[nH]1 | – | – | IPF patients | 30 mg once daily, adverse event | Eosinophilia incidence | 0%

Some of these lines once more (study 4):
Oligonucleotide | E-score
CTGCTCTC | 0.0609
CGGCCGCC | 0.102
GGTCGTAA | 0.035
ACAAACGA | 0.0987
